Experimental data from different studies.
A part holds a random share of what one study measured. Values joined by “and” are separate records of one study, mostly repeats; a detail may differ.

Sample 1
Target: cGMP-dependent protein kinase 1, isoform beta (PRKG1, Homo sapiens, UniProt Q13976)
UniProt Q13976, sequence (whole entry, looked up): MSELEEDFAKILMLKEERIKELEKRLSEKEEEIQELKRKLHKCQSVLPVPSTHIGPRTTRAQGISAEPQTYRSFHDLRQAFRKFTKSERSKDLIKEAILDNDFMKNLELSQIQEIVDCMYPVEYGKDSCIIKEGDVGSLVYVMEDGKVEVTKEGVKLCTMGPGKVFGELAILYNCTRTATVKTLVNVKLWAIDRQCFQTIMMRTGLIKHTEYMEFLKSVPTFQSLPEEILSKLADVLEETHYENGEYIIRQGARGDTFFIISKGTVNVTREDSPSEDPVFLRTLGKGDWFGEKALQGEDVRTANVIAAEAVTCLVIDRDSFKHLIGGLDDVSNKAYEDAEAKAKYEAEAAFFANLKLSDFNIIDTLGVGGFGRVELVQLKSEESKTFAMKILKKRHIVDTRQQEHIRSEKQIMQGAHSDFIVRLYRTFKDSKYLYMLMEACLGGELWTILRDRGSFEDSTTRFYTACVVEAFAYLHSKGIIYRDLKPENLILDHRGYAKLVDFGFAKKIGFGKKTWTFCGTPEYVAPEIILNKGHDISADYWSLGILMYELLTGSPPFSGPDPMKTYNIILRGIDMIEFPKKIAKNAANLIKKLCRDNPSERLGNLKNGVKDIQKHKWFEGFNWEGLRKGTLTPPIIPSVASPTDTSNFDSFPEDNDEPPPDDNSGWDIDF
Observed: enzyme activity
Action: inhibitor
Concentration: 0.5 µM
Relative to: control
c1ccc(-c2[nH]ncc2-c2ccnc3ccccc23)nc1 gave a remaining activity of 86%.
With Cc1cc2ncc(-c3ccccc3)nc2cc1C the remaining activity was 93.7%.
For COc1cc2ncnc(Nc3ccc(O)c(Br)c3)c2cc1OC, the remaining activity was 88.9%.
The remaining activity of CCN(CC)C(=O)c1ccc(Nc2nc(OCC3CCCCC3)c3[nH]cnc3n2)cc1 is reported as 96.1%.
With CN(C)C[C@H]1CCn2c(c(C3=C(c4cn(C)c5ccccc45)C(=O)NC3=O)c3ccccc32)C1 the remaining activity was 88.8%.
With CCN(CC)CCNC(=O)c1c(C)[nH]c(/C=C2\C(=O)Nc3ccc(F)cc32)c1C the remaining activity was 88.8%.
The remaining activity of c1ccc(-c2cnc(Nc3ccc(OCCN4CCCC4)cc3)s2)cc1 is reported as 96.7%.
For O=C(NC(NC(=S)Nc1ccc(F)c([N+](=O)[O-])c1)C(Cl)(Cl)Cl)C(c1ccccc1)c1ccccc1 (stereo not shown), the remaining activity was 109%.
Cn1nc2c3c(cccc31)C(=O)c1ccccc1-2 has a remaining activity of 93.7%.
With Ic1cccc(CSc2nnc(-c3ccncc3)o2)c1 the remaining activity was 95.5%.
N#C/C(=C\c1ccc(O)c(O)c1)C(=O)NCc1ccccc1 gave a remaining activity of 92.6%.
CCN(CC)CCNC(=O)c1c(C)[nH]c(/C=C2\C(=O)Nc3ccc(Cl)cc32)c1C gave a remaining activity of 76.4%.
CCOc1nc(NC(=O)Cc2cc(OC)ccc2OC)cc(N)c1C#N has a remaining activity of 96.5%.
N#Cc1c(NC(=O)c2cccc3ccccc23)sc2c1CCCC2 has a remaining activity of 94.6%.
Cc1nc2cc3nc(-c4cccs4)cnc3cc2n1C has a remaining activity of 98.5%.
O=C1Nc2ccc(Cl)cc2C1=Cc1cc(Cl)c(O)c(Cl)c1 gave a remaining activity of 102%.
COc1cc2c(cc1OC)-c1[nH]nc(Nc3cccc(F)c3)c1C2 has a remaining activity of 104%.
With O=C1C(Cl)=C(N2C(=O)CCC2=O)C(=O)c2ccccc21 the remaining activity was 104%.
With C[C@@H]1CCN(C(=O)CC#N)C[C@@H]1N(C)c1ncnc2[nH]ccc12 the remaining activity was 87.8%.
With CN([C@@H](Cc1ccc(OS(=O)(=O)c2cccc3cnccc23)cc1)C(=O)N1CCN(c2ccccc2)CC1)S(=O)(=O)c1cccc2cnccc12 the remaining activity was 84.2%.
For COc1cc2ncnc(Nc3cccc(Cl)c3)c2cc1OC, the remaining activity was 95.2%.
For Cc1cn(-c2cc(NC(=O)c3ccc(C)c(Nc4nccc(-c5cccnc5)n4)c3)cc(C(F)(F)F)c2)cn1, the remaining activity was 97.1%.
For O=C(Nc1cccc(Nc2nccc(Nc3cccc(C(F)(F)F)c3)n2)c1)C1CC1, the remaining activity was 97.6%.
O=C1c2ccccc2-c2n[nH]c3cccc1c23 has a remaining activity of 100%.

Sample 2
Cell line: mouse MPNST tumor cells
Method: high-content nuclear imaging
Measured: cell number
Concentration: 10 µM
Time: 12 h
Setting: mean of 2 replicates
Relative to: plate mean
Reading: higher = more cells
The nuclei count of COc1ccc(Nc2ncnc3ccc(OC)cc23)cc1 is reported as 1.49 z-score.
The nuclei count of O=C(O)c1ccc(-c2ccc3cc(O)c(C45CC6CC(CC(C6)C4)C5)cc3c2)cc1 is reported as -2.22 z-score.
The nuclei count of COc1cccc2c(NCc3ccccc3)nc(-n3c(N)nc4ccccc43)nc12 is reported as -5.35 z-score.
With CCCNC(C)C(=O)Nc1ccccc1C (stereo not shown) the nuclei count was 2.21 z-score.
For CCOc1nc2c(N)ncnc2n1CC, the nuclei count was 0.908 z-score.
CCCOc1ccc(C(=O)OCCN(CC)CC)cc1N has a nuclei count of -0.752 z-score.
Cc1ncc([N+](=O)[O-])n1CCO has a nuclei count of 1.32 z-score and -0.356 z-score.
With C#Cc1cccc(Nc2ncnc3cc(OCCOC)c(OCCOC)cc23)c1 the nuclei count was 2.43 z-score.
The nuclei count of Cc1ccc2cc(-c3c(C)ccc(C(=O)c4c(-c5ccccc5)n(C)n(-c5ccccc5)c4=O)c3N)ccc2n1 is reported as 2.33 z-score.

Sample 3
Cell line: normal-adjacent organoid sample F
Method: CellTiter-Glo
Concentration: 0.1 µM
Setting: replicate mean
Relative to: DMSO
For O=C(NCc1ncc(C(F)(F)F)cc1Cl)c1ccc2c(c1)C1(CCS(=O)(=O)CC1)[C@H](C1CC1)N2S(=O)(=O)c1ccc(F)cc1, the viability was 104%.
For CC(C)CC(=O)N1CCc2nc(-c3ccc(Br)cc3)nc(N(C)Cc3ccccc3)c2C1, the viability was 116%.
With CCCOc1ccc([C@@H]2[C@@H](C(=O)O)[C@H](c3ccc4c(c3)OCO4)CN2CC(=O)Nc2c(CC)cccc2CC)cc1 the viability was 107%.
Nc1c(C(=O)NCc2ccc(C(=O)NCCCC3CCCCC3)cc2)cnn1-c1ccccc1 gave a viability of 118%.
O=C(N[C@H]1CCCCC/C=C\C2C[C@@]2(C(=O)O)NC(=O)[C@@H]2C[C@@H](Oc3ccncc3)CN2C1=O)OC1CCCC1 (stereo partly shown) has a viability of 95.4%.
For CCOC(=O)c1cc2cc(-c3cc(C(=O)NCc4ccc(C(=O)O)cc4)nn3C)ccc2[nH]1, the viability was 110%.
O=S(=O)(NC1CCC(c2cc(F)ccc2F)(S(=O)(=O)c2ccc(Cl)cc2)CC1)C(F)(F)F (stereo not shown) gave a viability of 105%.
With Cc1c(NC(=O)c2cc(C(N)=O)nc3cc(F)ccc23)c(C(F)(F)F)nn1Cc1ccc(C(C)(C)C)cc1 the viability was 112%.
CCCCN(CCCC)C(=O)CN1C[C@H](c2cc(OC)c3c(c2)OCO3)[C@@H](C(=O)O)[C@@H]1CC(C)(C)CCC gave a viability of 112%.
With CN1C(=O)[C@@H](N2CCc3cn(Cc4ccccc4)nc3C2=O)COc2ccccc21 the viability was 142%.
The viability of CNCc1ccccc1-c1csc([C@H](C)Nc2nc(C)nc3cc(OC)c(OC)cc23)c1 is reported as 113%.
Nc1cnc(N2CCc3cc(S(=O)(=O)Nc4c(F)cc(Cl)cc4F)cc(N4CCCC4=O)c32)nc1 has a viability of 96.5%.
O=C(Nc1ccc(-n2nc(-c3cccnc3)cc2C(F)(F)F)cn1)c1ccc(-c2ccccc2)c(F)c1 gave a viability of 102%.

Sample 4
Structure (SMILES): CCCCCCCCCCCCCCCCOP(=O)([O-])OCC[N+](C)(C)C
The inhibition was 61% and 35% and 52% and 51% and 57% (Leishmania donovani; parasite growth, imaging; THP-1; 2 µM, intracellular, amastigote).
The inhibition was 74% and 70% and 76% (THP-1; host cell growth; 20 µM).
It gave 0% for inhibition (Leishmania donovani; parasite growth, imaging; THP-1; 2 nM, intracellular, amastigote).

Repeated from above (sample 2):
The nuclei count of COc1ccc(Nc2ncnc3ccc(OC)cc23)cc1 is reported as 1.49 z-score.
The nuclei count of O=C(O)c1ccc(-c2ccc3cc(O)c(C45CC6CC(CC(C6)C4)C5)cc3c2)cc1 is reported as -2.22 z-score.
The nuclei count of COc1cccc2c(NCc3ccccc3)nc(-n3c(N)nc4ccccc43)nc12 is reported as -5.35 z-score.
With CCCNC(C)C(=O)Nc1ccccc1C (stereo not shown) the nuclei count was 2.21 z-score.
For CCOc1nc2c(N)ncnc2n1CC, the nuclei count was 0.908 z-score.
CCCOc1ccc(C(=O)OCCN(CC)CC)cc1N has a nuclei count of -0.752 z-score.
